{"data": "Experimental data pooled from the literature", "OPG122": "mRNA-decapping protein OPG122 (OPG122, Vaccinia virus, UniProt P04312)", "rep papain-like protease": "Replicase polyprotein 1ab, papain-like protease (rep, Middle East respiratory syndrome-related coronavirus, UniProt K9N7C7)", "SCN9A": "Sodium channel protein type 9 subunit alpha (SCN9A, Homo sapiens, UniProt Q15858)", "Replicase polyprotein 1a papain-like protease": "Replicase polyprotein 1a, papain-like protease (Severe acute respiratory syndrome coronavirus 2, UniProt P0DTC1)", "note": "Each line is one published result; not all experiments were run side by side. ± marks the error that the study gave."}
{"SMILES": "Cn1cnc2c(ncn2C2OC(COP(=O)(O)OP(=O)(O)OP(=O)(O)O)C(O)C2O)c1=N (stereo not drawn)", "target": "OPG122", "IC50": "175000 nM"}
{"SMILES": "CCC(C(=O)Nc1ccccc1F)n1c(SCc2ccc(F)cc2)nc2ncccc21 (stereo not drawn)", "target": "rep papain-like protease", "test": "enzyme activity, inhibitor", "IC50": "> 100000 nM"}
{"SMILES": "Nc1nc2c(nc(I)n2C2OC(COP(=O)(O)OP(=O)(O)OP(=O)(O)O)C(O)C2O)c(=O)[nH]1 (stereo not drawn)", "target": "OPG122", "IC50": "> 200000 nM"}
{"SMILES": "CC(C)C[C@H](NC(=O)[C@H](CC(=O)O)NC(=O)[C@H](Cc1ccc(O)cc1)NC(=O)[C@H](CCCCN)NC(=O)[C@@H]1CSSC[C@@H]2NC(=O)[C@H](CCCCN)NC(=O)[C@H](CC(=O)O)NC(=O)[C@H](CC(N)=O)NC(=O)[C@H](CO)NC(=O)[C@@H]3CCCN3C(=O)[C@H](CC(N)=O)NC(=O)[C@@H]3CSSC[C@H](NC(=O)[C@H](C(C)C)NC(=O)[C@H](CC(C)C)NC(=O)[C@H](CO)NC(=O)[C@H](CO)NC(=O)[C@H](CO)NC(=O)[C@H](CCCCN)NC(=O)[C@H](CSSC[C@H](NC(=O)[C@H](C)N)C(=O)N[C@@H](CC(C)C)C(=O)NCC(=O)N[C@@H](Cc4ccccc4)C(=O)NCC(=O)N[C@@H](CCC(=O)O)C(=O)N[C@@H](CCCCN)C(=O)N3)NC2=O)C(=O)N[C@@H](CO)C(=O)N[C@@H](CCC(N)=O)C(=O)N[C@@H](CCCCN)C(=O)N[C@@H](CCCNC(=N)N)C(=O)N[C@@H](CCCCN)C(=O)N[C@@H](Cc2c[nH]c3ccccc23)C(=O)N1)C(=O)O", "target": "SCN9A", "test": "ion current, inhibitor, patch clamp", "IC50": "14900 nM"}
{"SMILES": "COCCOc1cc(OCCOC)cc(C(=O)NCCOC(=O)[C@@H]2CCCCN2S(=O)(=O)Cc2ccccc2)c1", "target": "Peptidyl-prolyl cis-trans isomerase (Burkholderia pseudomallei, UniProt Q63J95)", "test": "enzyme activity, inhibitor", "IC50": "580 nM"}
{"SMILES": "COC1C(COP(=O)(O)OP(=O)(O)OP(=O)(O)O)OC(n2cnc3c(=O)[nH]c(N)nc32)C1O (stereo not drawn)", "target": "OPG122", "IC50": "65000 nM"}
{"SMILES": "CCC(C(=O)Nc1cccc(F)c1)n1c(SCc2ccc(F)cc2)nc2ncccc21 (stereo not drawn)", "target": "rep papain-like protease", "test": "enzyme activity, inhibitor", "IC50": "> 100000 nM"}
{"SMILES": "Cc1ccc(N2CC3CC(C2)N3)cc1C(=O)NC1(c2ccc3c4c(cccc24)C(=O)N3C)CC1", "target": "Replicase polyprotein 1a papain-like protease", "test": "cell-free assay", "IC50": "6.3 nM"}
{"SMILES": "O=C(O)C1=C[C@H](O)[C@@H](NC(=O)c2ccc(-c3ccccc3)cc2)[C@H]([C@H](O)[C@H](O)CO)O1", "target": "Sialidase (nanI, Clostridium perfringens, UniProt A0A0H2YQR1)", "test": "enzyme activity, inhibitor", "IC50": "26000 nM"}
{"SMILES": "Cc1cc(-c2cnc3c(c2)c(O)c(-c2ccccc2)c(=O)n3O)ccc1F", "target": "Resolvase OPG149 (OPG149, Monkeypox virus, UniProt A0A7H0DNC1)", "test": "inhibitor", "IC50": "1400 ± 200 nM"}
{"SMILES": "CCCc1ccc(Oc2cccc(CBr)c2)c(O)c1", "target": "enoyl-ACP reductase (Bacillus anthracis, UniProt A0A6L8PBX8)", "IC50": "20300 ± 1300 nM"}
{"SMILES": "C1CCc2c(c(N3CCOCC3)nc3sc4c(N5CCNCC5)nnnc4c23)C1", "target": "Beta-glucuronidase (bglR, Clostridium perfringens, UniProt Q8XP19)", "IC50": "60 ± 10 nM"}
{"SMILES": "N#CC(CC1CCCNC1=O)NC(=O)C(CC1CC1)NC(=O)c1cc2cc(F)cc(F)c2[nH]1 (stereo not drawn)", "target": "Cathepsin S (CTSS, Homo sapiens, UniProt P25774)", "test": "enzyme activity, inhibitor", "conditions": "pH 5, with preincubation", "IC50": "400 nM"}
{"SMILES": "CCN1CCN(c2ccc(C)c(C(=O)NC3(c4ccc5c6c(cccc46)CC5)CC3)c2)CC1C (stereo not drawn)", "target": "Replicase polyprotein 1a papain-like protease", "test": "enzyme activity, inhibitor", "IC50": "14.6 nM"}
{"SMILES": "CC[C@H](C)[C@@H]1NC(=O)[C@@H]2CSSC[C@H](NC(=O)[C@H](CCCNC(=N)N)NC(=O)[C@@H]3CSSC[C@H](NC1=O)C(=O)N[C@@H]([C@@H](C)O)C(=O)N[C@@H](CCCNC(=N)N)C(=O)NCC(=O)N[C@@H](Cc1ccccc1)C(=O)N3)C(=O)N1CCC[C@H]1C(=O)N[C@H]1CSSC[C@H](NC(=O)CNC(=O)[C@H](Cc3ccc(O)cc3)NC(=O)[C@H](CCCNC(=N)N)NC(=O)[C@H](CO)NC1=O)C(=O)N[C@@H](Cc1c[nH]c3ccccc13)C(=O)N2", "target": "Lethal factor (Bacillus anthracis, UniProt P15917)", "test": "enzyme activity, inhibitor", "IC50": "971 ± 60 nM"}
{"SMILES": "CC(=O)N[C@H]1CC(=O)NCCCC[C@@H](C(N)=O)NC(=O)[C@@H](Cc2ccccc2)NC(=O)[C@@H]2CCCN2C(=O)[C@H](CC(=O)O)NC(=O)[C@H](CC(=O)O)NC(=O)[C@H](Cc2ccc(CP(=O)(O)O)cc2)NC(=O)[C@H](CCC(=O)O)NC1=O", "target": "Secreted effector protein (Yersinia pestis, UniProt O68720)", "IC50": "~100000 nM"}
{"SMILES": "CCCCCCCC(O)CC(=O)CCc1ccc(O)c(OC)c1 (stereo not drawn)", "target": "Transcriptional activator VP30, with NP peptide (VP30, Zaire ebolavirus, UniProt Q05323)", "system": "Ebola virus", "IC50": "62000 nM"}
{"SMILES": "CC[C@H](C)[C@H](NC(=O)[C@H](C)NC(=O)[C@H](CCC(=O)O)NC(=O)[C@H](CCC(=O)O)NC(=O)[C@H](CC(C)C)NC(=O)[C@H](CCCCN)NC(=O)[C@H](CCCCN)NC(=O)[C@H](CCSC)NC(=O)[C@H](CCC(=O)O)NC(=O)[C@H](Cc1ccc(O)cc1)NC(=O)[C@H](CCC(=O)O)NC(=O)[C@H](CC(C)C)NC(=O)[C@H](CC(=O)O)NC(=O)[C@H](CC(C)C)NC(=O)[C@H](Cc1ccccc1)NC(=O)[C@@H](NC(=O)[C@@H](NC(=O)[C@H](CC(N)=O)NC(=O)[C@@H](NC(=O)[C@H](CCC(N)=O)NC(=O)[C@H](CC(=O)O)NC(=O)[C@H](CC(C)C)NC(=O)[C@@H](N)CO)[C@@H](C)CC)C(C)C)[C@@H](C)O)C(=O)N[C@@H](CCCCN)C(=O)N[C@@H](CCCCN)C(=O)N[C@@H](CC(C)C)C(=O)N[C@@H](CCC(=O)O)C(=O)N[C@@H](CCC(=O)O)C(=O)N[C@@H](CO)C(=O)N[C@@H](Cc1ccc(O)cc1)C(=O)N[C@H](C(=O)N[C@@H](CC(=O)O)C(=O)N[C@@H](CC(C)C)C(=O)N[C@@H](CCCCN)C(=O)N[C@@H](CCC(=O)O)C(=O)N[C@@H](CC(C)C)C(=O)O)[C@@H](C)CC", "target": "Spike glycoprotein (Severe acute respiratory syndrome coronavirus 2, UniProt P0DTC2)", "test": "ligand displacement, FP", "IC50": "2.5 nM"}
{"SMILES": "C=Cc1c(C)c2cc3nc(cc4[nH]c(cc5nc(cc1[nH]2)C(C)=C5CCC(=O)O)c(CCC(=O)OC)c4C)C1(C)C3=CC=C(C(=O)OC)C1C(=O)OC (stereo not drawn)", "target": "Spike glycoprotein, with TMPRSS2 (Severe acute respiratory syndrome coronavirus 2, UniProt P0DTC2)", "test": "inhibitor", "system": "SARS-CoV-2", "IC50": "14700 nM"}
{"SMILES": "CC(C)C[C@@H]1NC(=O)[C@H](CCCNC(=N)N)NC(=O)[C@@H]2CCCN2C(=O)[C@@H]2CSSC[C@H](NC(=O)CNC(=O)[C@@H]3CCCN3C(=O)[C@H](CCCCN)NC(=O)[C@H](CC(=O)O)NC(=O)[C@@H](NC(=O)CN)C(C)C)C(=O)N[C@@H](CCCNC(=N)N)C(=O)N[C@@H](Cc3ccc(O)cc3)C(=O)N[C@@H](CC(C)C)C(=O)N[C@@H](Cc3ccccc3)C(=O)NCC(=O)NCC(=O)N[C@H]3CSSC[C@H](NC(=O)CNC1=O)C(=O)N[C@@H](CCCCN)C(=O)NCC(=O)N[C@@H](CCCCN)C(=O)NCC(=O)N[C@@H](Cc1c[nH]cn1)C(=O)N[C@@H](CC(=O)O)C(=O)N[C@@H](Cc1ccc(O)cc1)C(=O)N[C@H](C(=O)N[C@@H](C)C(=O)N[C@@H](Cc1c[nH]c4ccccc14)C(=O)N[C@@H](CC(=O)O)C(=O)NCC(=O)N[C@H](C(=O)N[C@@H](Cc1ccccc1)C(=O)N[C@@H](CO)C(=O)N[C@@H](CC(=O)O)C(=O)O)[C@@H](C)O)CSSC[C@H](NC(=O)[C@H](CC(=O)O)NC(=O)[C@H](CC(=O)O)NC(=O)[C@H](CC(=O)O)NC(=O)[C@H](CO)NC(=O)[C@H](CCCCN)NC3=O)C(=O)N2", "target": "Sodium channel protein type 8 subunit alpha (SCN8A, Homo sapiens, UniProt Q9UQD0)", "test": "peak sodium current, inhibitor, automated patch clamp", "system": "HEK293", "conditions": "holding potential -100 mV, with: 0.1 % BSA", "IC50": "832 nM"}
{"SMILES": "CC[C@H](C)[C@H](NC(=O)[C@H](Cc1c[nH]cn1)NC(=O)[C@H](Cc1ccc(O)cc1)NC(=O)[C@H](CCCCN)NC(=O)[C@@H]1CSSC[C@@H]2NC(=O)[C@H](CCC(=O)O)NC(=O)[C@H](CC(=O)O)NC(=O)[C@H](C)NC(=O)CNC(=O)[C@H](Cc3ccc(O)cc3)NC(=O)[C@H](CCCCN)NC(=O)[C@@H]3CSSC[C@H](NC(=O)[C@H](C(C)C)NC(=O)[C@H](Cc4ccc(O)cc4)NC(=O)CNC(=O)[C@H](CCCCN)NC(=O)[C@H](CSSC[C@H](NC(=O)[C@@H](N)CO)C(=O)N[C@@H](CCCCN)C(=O)N[C@@H](C(C)C)C(=O)N[C@@H](Cc4c[nH]c5ccccc45)C(=O)N[C@@H](Cc4ccccc4)C(=O)N[C@@H](CC(N)=O)C(=O)N[C@@H](CCC(=O)O)C(=O)N3)NC2=O)C(=O)N[C@@H](CO)C(=O)N[C@@H](CCCCN)C(=O)N[C@@H](CCCNC(=N)N)C(=O)N[C@@H](CC(=O)O)C(=O)NCC(=O)N[C@@H](Cc2c[nH]c3ccccc23)C(=O)N1)C(=O)N[C@@H](CC(N)=O)C(=O)O", "target": "SCN9A", "test": "ion current, inhibitor, patch clamp", "IC50": "1750 nM"}
{"note": "Repeated from above:"}
{"SMILES": "N#CC(CC1CCCNC1=O)NC(=O)C(CC1CC1)NC(=O)c1cc2cc(F)cc(F)c2[nH]1 (stereo not drawn)", "target": "Cathepsin S (CTSS, Homo sapiens, UniProt P25774)", "test": "enzyme activity, inhibitor", "conditions": "pH 5, with preincubation", "IC50": "400 nM"}
{"SMILES": "CCN1CCN(c2ccc(C)c(C(=O)NC3(c4ccc5c6c(cccc46)CC5)CC3)c2)CC1C (stereo not drawn)", "target": "Replicase polyprotein 1a papain-like protease", "test": "enzyme activity, inhibitor", "IC50": "14.6 nM"}
